Results from different studies.
Parts stem from different laboratories: compare values within a part only.

Study 1
Target: RNA binding protein fox-1 homolog 2, RRM domain, GST-SBP tag (RBFOX2, Homo sapiens, UniProt O43251-10, residues 100-194)
Technique: RNA Bind-n-Seq
Form: RNA
Matrix: in vitro
Concentration: 365 nM
Notes: natural RNA segment, single round, ends assumed
Reference: no-protein control
Direction: higher = stronger binding
Target sequence (chain): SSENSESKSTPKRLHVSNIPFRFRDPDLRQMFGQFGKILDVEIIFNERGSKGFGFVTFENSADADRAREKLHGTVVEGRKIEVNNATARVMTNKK
Strand	RBNS enrichment (R)
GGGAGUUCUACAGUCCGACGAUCCUCAAACCCCAGUCACCAAUGCAAAUAAAAUCUUCUAUUUAAACCUGCUGGCUCAGUAUCGGCUGGCCAGUCAAGUGAAAGAGGAGGUGGAGCAUUUCCUGAAAGGCUUGUGGAAUUCUCGGGUGCCAA	0.318
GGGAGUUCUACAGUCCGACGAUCUUUUCCCCCAUAAUUUAAAGUUCAGUCAUUAAGCUGUUACAUCCCUCUGAAGUUGAUUGUCUUAUAUUCCCGCUAUGAGAUAUCUCAAAGAUUCUUAAUCAAGAGUUUCAUGGAAUUCUCGGGUGCCAA	0.61
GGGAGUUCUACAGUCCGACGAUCUUACUGUCCUUACCCUUCAUCCAACAAACUCUGAAGCCAGUCUCUAGCUUACUGCAAGAAAAAGAAGUGUACAUAAUAUUUAAGAUGCUGAGUAUUUCAUAGGAAAGCUGUGGAAUUCUCGGGUGCCAA	0.441
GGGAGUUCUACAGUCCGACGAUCACCCCCCCCACUCUGCAGAGGGAAGCGGGGACAAUGCCGGGGUUUCAGGCAGGAGACACGAGGAGGGCCUGCCCGGAAGUCACAUCGGCAGCAGCUGUCUAAAGGGCUUGUGGAAUUCUCGGGUGCCAA	0.59
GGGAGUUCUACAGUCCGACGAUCGGGGCAAAAUGCUGCCAGUCUCUUUGCUAAAACAUAACAAGAGUCACCUUUACUCCAGUUCCCAACAAGUUCCUCAUCUUCAUCUGAGGCCACCUCAGCCUGGACUUUGUUGGAAUUCUCGGGUGCCAA	0.343
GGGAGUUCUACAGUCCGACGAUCUGAGACAUAAAUGUUCACUUUAAAGCAAUUGCAUAAUAGAUAAAAACCUGAACUUUCAUUGGAUUUUUGUUAAUUUUCCUCAUUUUGAAUUAUGUGCACUACCAUAGCUAUGGAAUUCUCGGGUGCCAA	1.27
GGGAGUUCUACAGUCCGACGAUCUUUGUAUUUUUAGUAGAGACGGGGUUUCACUGUGGUCUCGAUCUCCUGACCUCGUGAUCCGCCCGCCUUGGCCUCCCAAGGUGCUGGGAUUACAAGCGUGAGCCACCGCAUGGAAUUCUCGGGUGCCAA	0.433
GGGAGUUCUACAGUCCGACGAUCUUUUCCCCCUUAGCACUUGUAUGAGUGAGGAGAAAGUUAGGUAAAGAUUGAAACUAUAAAUUACAGUGCAGUAAACUGUGCUAGGGAAGGAAUCAGUUACUAUUUAAGUUUGGAAUUCUCGGGUGCCAA	0.679
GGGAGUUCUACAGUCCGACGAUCGUGAACAGCAUUUUCGUUCCUGACCCAAUGAGAAAGAGGCACUCAUCUCUGACCCAAUGAGAAAGAGACACUCAUCUCUGGGAAAUGUGCCUCUCUGGAAUCUCCAUCCCUGGAAUUCUCGGGUGCCAA	0.519
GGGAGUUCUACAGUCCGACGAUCCCCAGACCUGCCUUCCUCCACCAAGAGAUCCUUAUUAAACACAGCCCCCAAAGCACAGAAUGGAUUCAAUUUGUGGCCUGGGUUCAGCUCUGCCUCUGCAGUUGGCAGGUUGGAAUUCUCGGGUGCCAA	0.544
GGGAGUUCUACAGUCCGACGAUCGUUUAGUCAUCUAAGGCUUCAUUGUACUUCGGGGAGAGCUAUAAGUAACUCACCUUUAAAACAACAGGCUCUGAUUUGCUGAAGAGGUUUGGUAUUUUUUAAGGUAUGUCUGGAAUUCUCGGGUGCCAA	0.409
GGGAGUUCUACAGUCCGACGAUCCCUGGUUUUGAUGAGCAUUGAAGGCACCUGGGAAAUGAGGCCCACAGACUCAAAGUUACUCUCCUUCCCCCUACCUGGGCCAGUGAAAUAGAAAGCCUUUCUAUUUUUUGUGGAAUUCUCGGGUGCCAA	3.15

Study 2
Target: Prothrombin, mature alpha-thrombin (F2, Homo sapiens, UniProt P00734)
Technique: aptamer microarray, sandwich
Form: DNA with 2'F-ANA
Matrix: in vitro
Concentration: 200 nM
Notes: whole 15-mer aptamer, many near background
Together with: Cy3 exosite-II aptamer, 400 nM
Direction: higher = stronger binding
Strand: GGTTGGTGTGGTTGG
Modification	mean fluorescence intensity [a.u.]
2'F-ANA at 1 3 7 8 10 14 15	60.6
2'F-ANA at 1 3 6 7 9 10 11 12 14 15	63
2'F-ANA at 1 2 4 7 10 11 12 13 14	103
2'F-ANA at 1 3 4 5 7 8 10 11 13 15	49.5
2'F-ANA at 1 4 6 7 8 9 11 13 14	51
2'F-ANA at 1 4 7 8 9 11 13 14 15	136
2'F-ANA at 1 4 6 10 11 13 15	47.2
2'F-ANA at 1 3 4 5 6 7 9 11 12	118
2'F-ANA at 1 2 3 4 7 8 9 13	127
2'F-ANA at 4 13 14 15	168
2'F-ANA at 1 4 5 7 10 11	47.6
2'F-ANA at 1 4 6 7 9 10 15	81.9
2'F-ANA at 1 3 4 6 10 13 15	58
2'F-ANA at 3 4 5 7 8 10 11 12	63.8
2'F-ANA at 5 6 8 9 12 14	48.7
2'F-ANA at 2 4 8 9 10 11	81.7
2'F-ANA at 1 3 5 7 8 10 11	61.9
2'F-ANA at 3 4 6 9 10 11 14	185
2'F-ANA at 3 7 12	1620
2'F-ANA at 3 4 7 8 15	913
2'F-ANA at 2 3 4 6 8 9 10 11 12 14 15	134
2'F-ANA at 1 2 4 7 11 13 14 15	52.3
2'F-ANA at 1 2 5 7 8 11 13 14	48.1
2'F-ANA at 1 3 4 7 8 11 12 13 14 15	115
2'F-ANA at 1 2 5 8 10 11 12 15	53.1

Study 3
Target: Centromere-binding protein 1, full length, N-terminal tag (CBF1, Saccharomyces cerevisiae, UniProt P17106, residues 1-351)
Chain of UniProt P17106 (whole entry, looked up): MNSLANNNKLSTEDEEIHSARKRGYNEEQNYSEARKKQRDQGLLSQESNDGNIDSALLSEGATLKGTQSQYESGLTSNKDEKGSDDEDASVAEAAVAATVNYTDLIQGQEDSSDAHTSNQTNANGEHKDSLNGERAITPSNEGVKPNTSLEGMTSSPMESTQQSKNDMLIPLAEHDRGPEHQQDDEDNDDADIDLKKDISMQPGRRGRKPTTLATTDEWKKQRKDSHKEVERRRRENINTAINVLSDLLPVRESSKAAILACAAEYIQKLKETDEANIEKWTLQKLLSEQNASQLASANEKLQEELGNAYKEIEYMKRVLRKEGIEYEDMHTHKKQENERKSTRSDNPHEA
Technique: protein-binding microarray
Form: double-stranded DNA, one strand shown
Matrix: in vitro
Concentration: 0.8 µM
Notes: whole 60-bp probe, no competitor
Direction: higher = stronger binding
Strand	fluorescence intensity [a.u.]
CCTAACTACTATACACGTGCCACATAGCTTCGTACAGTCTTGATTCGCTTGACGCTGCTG	7000
CTATAAAAAGAGTGGCATGTGAACTGCCTACCGTTCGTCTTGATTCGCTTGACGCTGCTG	594
GAACTTATCACGTGACACGTGTGCGGCAAATTTTAGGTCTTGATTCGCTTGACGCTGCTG	31300
GAAGTTATACTAATCTTGGTGATGGAATGAGTATAGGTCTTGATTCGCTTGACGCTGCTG	524
GAACTTTCTCTTCCCCGCGTGTTTTCCGTACACTAGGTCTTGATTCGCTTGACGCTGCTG	545
GAAAATAGTTTGTGTGGTCTGATTATTTACGTATAGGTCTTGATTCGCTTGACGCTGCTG	549
CTAGAACAATCCAAAGTCACCTTTATTGGCGATTTCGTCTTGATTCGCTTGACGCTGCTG	490
CTAGCCGATACGGCACCCGTGCGATACGAGACATTCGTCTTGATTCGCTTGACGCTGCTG	552
GAAAGGTGAGTTCGTCATCAGTCATCTGACGTATAGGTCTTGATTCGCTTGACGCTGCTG	1870
GAAAACAAATAACATCACGATGCACGAGCACTGTAGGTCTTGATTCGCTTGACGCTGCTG	831
TGTACGAAGCTATTGCGTGTGTTTATAGTAGTTAGGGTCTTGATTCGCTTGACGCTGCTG	530
CTAGAAATAATCGATGGTGTGAACTAAAGTCCTTTCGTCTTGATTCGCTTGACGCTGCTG	518
CTATAGGAACTACACCTGACAGCAACTTGCGGCTTCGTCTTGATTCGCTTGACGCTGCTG	726
GAACCCCCGAATCTTCTCGTCACGGAAGACCGTTAGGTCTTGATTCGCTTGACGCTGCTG	505
GAATCTTTTTGCAAACAAATCACGAGCGACGGTTAGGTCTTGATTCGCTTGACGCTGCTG	1560
CTATGGTTTTGATGGTAGGTGACCTCACTTTTCTTCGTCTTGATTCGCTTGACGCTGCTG	520
CTACTGATTAACAAGCACGTAACGGAGACCAAATTCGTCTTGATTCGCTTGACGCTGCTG	573
CTATCAAACCGAAATCAGCAGACATTTTATTGTTTCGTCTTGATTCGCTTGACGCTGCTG	663
CTATTTTGGCTTCATCACGCTCGTCAGTTGAGCTTCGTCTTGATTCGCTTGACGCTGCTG	519
GAAATTCAGCATTATCACGCCCTTCCACCAACGTAGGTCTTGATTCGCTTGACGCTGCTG	587
GAACAATGGATGATTGCTGATGTACGCAATAGTTAGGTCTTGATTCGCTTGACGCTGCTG	548

Study 4
Target: Sal-like protein 4, full length isoform B (SALL4, Homo sapiens, UniProt Q9UJQ4-2, residues 1-616)
Technique: universal PBM
Form: double-stranded DNA, one strand shown
Matrix: in vitro
Concentration: not given
Notes: 8-mer, flanks averaged, mean of replicates
Direction: higher = stronger binding
Construct (chain): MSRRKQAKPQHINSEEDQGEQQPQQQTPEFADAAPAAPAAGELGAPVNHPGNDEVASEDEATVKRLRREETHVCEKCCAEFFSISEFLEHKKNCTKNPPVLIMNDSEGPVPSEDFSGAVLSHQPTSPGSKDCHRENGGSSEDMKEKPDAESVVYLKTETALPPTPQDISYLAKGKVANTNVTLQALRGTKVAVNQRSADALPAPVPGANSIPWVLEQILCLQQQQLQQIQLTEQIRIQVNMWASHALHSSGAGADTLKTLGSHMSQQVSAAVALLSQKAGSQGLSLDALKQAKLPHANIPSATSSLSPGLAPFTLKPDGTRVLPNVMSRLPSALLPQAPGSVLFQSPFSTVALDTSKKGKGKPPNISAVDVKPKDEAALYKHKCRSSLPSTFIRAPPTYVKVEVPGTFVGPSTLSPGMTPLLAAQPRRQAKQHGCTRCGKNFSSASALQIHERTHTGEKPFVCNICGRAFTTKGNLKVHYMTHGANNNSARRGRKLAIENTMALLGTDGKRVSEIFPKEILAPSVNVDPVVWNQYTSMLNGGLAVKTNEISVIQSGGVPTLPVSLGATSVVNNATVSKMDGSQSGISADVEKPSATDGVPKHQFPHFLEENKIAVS
Strand	E-score
AATCTGCT	0.158
ATCCTTCG	-0.0595
CTTATACA	0.236
ACGCAACC	-0.109
AGACTAGC	-0.175
CCATTTCC	0.125
GTTAACAA	0.124
ACTACAGA	0.208
ATACCCTC	0.0169
CAGGTAGC	-0.208
CCTCTGTA	0.122
CTGGCCTA	-0.114
GCAGCAAA	-0.0132
GAGTAATC	0.165
AACGGGCC	-0.208
AGAAGGAG	-0.0391
AAACGATG	0.121
ATGCTTTG	0.103
AGTCCCCA	-0.28
TCCTCCAA	-0.0486
AAGATAAT	0.317

Some of these lines once more (study 4):
Strand	E-score
CTTATACA	0.236
ACGCAACC	-0.109
AGACTAGC	-0.175
CCATTTCC	0.125
GTTAACAA	0.124
ACTACAGA	0.208
ATACCCTC	0.0169
CAGGTAGC	-0.208
CCTCTGTA	0.122
CTGGCCTA	-0.114
GCAGCAAA	-0.0132
